Experimental data collected from several papers.
Several values in a cell are separate wells, animals, samples, runs or records. ± marks the error that the study gave.

| SMILES | tested on | test | system | setting | scale | quantity | value |
| --- | --- | --- | --- | --- | --- | --- | --- |
| NC1CCN(C(=O)Oc2ccc(C3CCCC4(C3)OOC3(O4)C4CC5CC(C4)CC3C5)cc2)CC1 (racemic) | – | – | male Sprague-Dawley rats, plasma | intravenous, 10 mg/kg | – | MRT | ~10 h |
| CC(C)C[C@H](NC(=O)[C@H](Cc1ccc(O)cc1)NC(=O)[C@H](C)NC(=O)[C@H](CC(N)=O)NC(=O)[C@H](CC(C)C)NC(=O)[C@H](C)NC(=O)[C@@H](NC(=O)[C@H](CCCCN)NC(=O)CNC(=O)[C@@H](NC(=O)[C@H](CC(N)=O)NC(=O)[C@H](CCCCN)NC(=O)CNC(=O)[C@@H](NC(=O)[C@H](Cc1c[nH]cn1)NC(=O)[C@H](C)NC(=O)[C@H](C)NC(=O)[C@H](CCCCN)NC(=O)[C@H](CCCCN)NC(=O)[C@H](Cc1ccccc1)NC(=O)[C@H](Cc1c[nH]c2ccccc12)NC(=O)[C@H](CCCCN)NC(=O)[C@H](CCCCN)NC(=O)[C@H](CS)NC(=O)CN)C(C)C)C(C)C)C(C)C)C(N)=O | – | – | zebrafish embryos 4 hpf, E3 medium | 1 h | – | acute toxic concentration | 5 µM |
| Cc1ccc(OCCN(C)C)cc1C(=O)N[C@H](C)c1cc(-c2ccnn2C)nc2ccccc12 | Vero E6 | – | – | 3.906 µM | – | viability | 90.4% and 121% |
| O=C(O)/C=C\c1ccc2occc2c1O[C@@H]1O[C@H](CO)[C@@H](O)[C@H](O)[C@H]1O | – | – | rat, plasma | oral, dose not given, dosed as combined Eu and Pc extracts | reference: single extracts | Cmax decrease | 153 ± 84.8 ng/mL |
| CC[C@H](C)[C@H](NC(=O)[C@H](CCCCN)NC(=O)CNC(=O)[C@H](CC(C)C)NC(=O)[C@H](Cc1ccccc1)NC(=O)[C@H](CCCCN)NC(=O)[C@H](CO)NC(=O)[C@H](Cc1ccccc1)NC(=O)[C@H](Cc1c[nH]c2ccccc12)NC(=O)[C@H](CCC(N)=O)NC(=O)[C@@H](NC(=O)[C@H](Cc1ccccc1)NC(=O)CCCCCNC(=O)CN1CCN(CC(=O)O)CCN(CC(=O)O)CCN(CC(=O)O)CC1)C(C)C)C(=O)N[C@@H](CCC(=O)O)C(=O)N1CCC[C@H]1C(=O)N[C@@H](CC(=O)O)C(=O)N[C@H](C(=O)N[C@@H](CO)C(=O)N[C@@H](CCC(N)=O)C(=O)N[C@H](C(=O)N[C@@H](CCC(N)=O)C(=O)N[C@@H](CC(=O)O)C(=O)N1CCC[C@H]1C(=O)N[C@@H](CC(N)=O)C(=O)N[C@@H](CC(=O)O)C(=O)N[C@@H](CCC(N)=O)C(=O)N[C@@H](Cc1ccc(O)cc1)C(=O)N[C@@H](CCC(=O)O)C(=O)N1CCC[C@H]1C(=O)N[C@@H](Cc1ccccc1)C(=O)O)C(C)C)C(C)C [copper-64 labelled] | – | dynamic PET | mouse both sexes, CT26 tumour, checkpoint inhibitor-treated, tumour | intravenous, 100 µCi/mouse, 170 s | – | SUVmean | 2.32 SUV |
| CC1(C)C(=O)N(c2ccc(C#N)c(C(F)(F)F)c2)C(=S)N1c1ccc(C(N)=O)c(F)c1 | – | – | male human, plasma | oral, 80 mg, single dose, fasted | – | MRT | 378 h |
| [Ga+3].[O-]c1ccc(Br)c2cccnc12.[O-]c1ccc(Br)c2cccnc12.[O-]c1ccc(Br)c2cccnc12 | – | – | oil/water | pH 7.4 | – | partition coefficient | 35.6 |
| CC(C)[C@@H]1NC(=O)CNC(=O)[C@H](CC(N)=O)NC(=O)[C@H](CCCNC(=N)N)NC(=O)[C@H](Cc2ccc(O)cc2)NC(=O)[C@H](C(C)C)NC(=O)[C@@H](NC(=O)[C@@H](NC(=O)[C@H](CC(N)=O)NC(=O)[C@H](Cc2c[nH]c3ccccc23)NC(=O)[C@H](C)NC(=O)[C@H](Cc2ccccc2)NC(=O)CNC(=O)[C@H](CCCCN)NC(=O)[C@H](Cc2ccccc2)NC(=O)[C@H](Cc2ccccc2)NC(=O)[C@H](CCCCN)NC(=O)OCC2c3ccccc3-c3ccccc32)C(C)C)CSSC[C@@H](C(=O)N[C@@H](Cc2c[nH]cn2)C(=O)N[C@@H](CCCNC(=N)N)C(=O)N[C@@H](CCCNC(=N)N)C(=O)N[C@@H](C)C(=O)N[C@@H](CC(N)=O)C(N)=O)NC(=O)[C@H](C(C)C)NC(=O)[C@H](CCCNC(=N)N)NC1=O | – | – | ICR mice, serum | intraperitoneal, 10 mg/kg, day 5 | reference: AST over ALT | AST/ALT ratio | 0.58 ± 0.03 |
| COc1ccccc1-c1n[nH]c2nc(NC3CCN(C(=O)Cc4ccc(F)cc4F)CC3)ncc12 | – | bead binding, competition bead pull-down, item: LMJF.02.0460 | Leishmania donovani axenic amastigote extract | 10 µM | reference: vehicle | relative abundance | 0.86 |
| CC(C)[C@H](NC(=O)[C@@H](NC(=O)[C@H](CCCNC(=N)N)NC(=O)[C@H](CCCNC(=N)N)NC(=O)[C@H](CCCNC(=N)N)NC(=O)[C@H](CCC(N)=O)NC(=O)[C@H](CCCNC(=N)N)NC(=O)[C@H](CCCNC(=N)N)NC(=O)[C@H](CCCCN)NC(=O)[C@H](CCCCN)NC(=O)[C@H](CCCNC(=N)N)NC(=O)CN)[C@@H](C)O)C(=O)N[C@H](C(=O)N[C@@H](CO)C(=O)N1CCC[C@H]1C(=O)O)[C@@H](C)O | – | – | ICR mouse, male, left kidney | intranasal, 5 mg/kg daily, 4 weeks | – | kidney weight | 0.345 ± 0.074 g |
| Cc1ccc(OCCN(C)C)cc1C(=O)N[C@H](C)c1cc(-c2ccco2)nc2ccccc12 | Vero E6 | – | – | 7.812 µM | – | viability | 102% and 101% |
| CCN(CCCCOc1ccc(CCC(=O)N2CCC(Cc3ccccc3)CC2)cc1OC)Cc1ccccc1 | – | – | Sprague-Dawley rats, both sexes, faeces | oral gavage, 25 mg/kg, 12 to 24 h | reference: dose | excretion rate | 0.356 ± 0.11% |
| CC[C@H](C)[C@@H]1NC(=O)[C@H](Cc2ccc(O)cc2)NC(=O)CCCSC[C@@H](C(=O)N(CC(=O)N[C@@H](CC(C)C)C(=O)NCC(N)=O)Cc2ccc(F)cc2)NC(=O)[C@H](CC(N)=O)NC(=O)[C@H](CCC(N)=O)NC1=O | – | – | human | intranasal, 200 µg single dose | – | deaths | 0% |
| Cc1c(-c2ccc(N3CCc4cccc(C(=O)Nc5nc6ccccc6s5)c4C3)nc2C(=O)O)cnn1CC12CC3CC(CC(C3)C1)C2 | – | – | anesthetized cynomolgus monkeys, plasma | intravenous bolus, 5.0 mg/kg, 120 min | – | plasma concentration | 1700 ng/mL and 4700 ng/mL |
| Cc1nc2cccc(OCC(C)(C)C(=O)NC(C)C)c2c(N)c1C(=O)[O-].[Na+] | Salmonella typhimurium | reverse mutation, plate incorporation | TA98 | 0.32 mg/plate, without S9 | – | revertant colonies | 29 ± 3 colonies/plate |
| O=C1NC2(CC2)COc2ncc(F)cc2[C@H]2COCCN2c2ccn3ncc1c3n2 | – | – | Sprague-Dawley rat, male, serum | oral, 5 mg/kg/day, 4 weeks daily, end of treatment | – | creatine kinase activity | 427 ± 193 U/L |
| CC(C)C[C@H](NC(=O)[C@H](CCCCN)NC(=O)[C@H](CCC(N)=O)NC(=O)[C@H](Cc1c[nH]cn1)NC(=O)C[C@@H]1NC(=O)[C@H](CCCCN)NC1=O)C(=O)N[C@H](C(=O)NCCCC[C@@H]1NC(=O)[C@H](CC(=O)N[C@@H](Cc2ccccc2)C(=O)N[C@@H](Cc2ccccc2)C(=O)N[C@@H](C)C(=O)N[C@@H](CCC(=O)O)C(=O)N[C@@H](CC(=O)O)C(=O)NCCCC[C@@H]2NC(=O)[C@H](CC(N)=O)NC2=O)NC1=O)C(C)C | – | HPLC | tris-HCl buffer | 24 h, pH 8, 37 °C, 10 mM tris-HCl, added: trypsin 5 µM | – | stability to trypsin | stable |

Repeated from above:
| SMILES | tested on | test | system | setting | scale | quantity | value |
| --- | --- | --- | --- | --- | --- | --- | --- |
| O=C(O)/C=C\c1ccc2occc2c1O[C@@H]1O[C@H](CO)[C@@H](O)[C@H](O)[C@H]1O | – | – | rat, plasma | oral, dose not given, dosed as combined Eu and Pc extracts | reference: single extracts | Cmax decrease | 153 ± 84.8 ng/mL |
| CC[C@H](C)[C@H](NC(=O)[C@H](CCCCN)NC(=O)CNC(=O)[C@H](CC(C)C)NC(=O)[C@H](Cc1ccccc1)NC(=O)[C@H](CCCCN)NC(=O)[C@H](CO)NC(=O)[C@H](Cc1ccccc1)NC(=O)[C@H](Cc1c[nH]c2ccccc12)NC(=O)[C@H](CCC(N)=O)NC(=O)[C@@H](NC(=O)[C@H](Cc1ccccc1)NC(=O)CCCCCNC(=O)CN1CCN(CC(=O)O)CCN(CC(=O)O)CCN(CC(=O)O)CC1)C(C)C)C(=O)N[C@@H](CCC(=O)O)C(=O)N1CCC[C@H]1C(=O)N[C@@H](CC(=O)O)C(=O)N[C@H](C(=O)N[C@@H](CO)C(=O)N[C@@H](CCC(N)=O)C(=O)N[C@H](C(=O)N[C@@H](CCC(N)=O)C(=O)N[C@@H](CC(=O)O)C(=O)N1CCC[C@H]1C(=O)N[C@@H](CC(N)=O)C(=O)N[C@@H](CC(=O)O)C(=O)N[C@@H](CCC(N)=O)C(=O)N[C@@H](Cc1ccc(O)cc1)C(=O)N[C@@H](CCC(=O)O)C(=O)N1CCC[C@H]1C(=O)N[C@@H](Cc1ccccc1)C(=O)O)C(C)C)C(C)C [copper-64 labelled] | – | dynamic PET | mouse both sexes, CT26 tumour, checkpoint inhibitor-treated, tumour | intravenous, 100 µCi/mouse, 170 s | – | SUVmean | 2.32 SUV |
